# Measured values of several laboratories.
# Protocols differ between the studies behind these lines. Numbers after ± are the reported error.
Compound,test,system,setting,scale,endpoint,result
COc1cccc2c1C(=O)c1c(O)c3c(c(O)c1C2=O)CC(O)(C(=O)CO)CC3OC1CC(NC(=O)OC2C=CCCC(C)(C(=O)NCC(=O)O)CC2)C(O)C(C)O1 (centres unmarked),,"male Sprague Dawley rat, plasma","intravenous, 21.5 mg/kg/day doxorubicin equivalents, day 1",,AUC(0.5-24 h),1420 ± 176 ng·h/mL
CC[C@H](C)[C@H](NC(=O)[C@H](CCCCN)NC(=O)CNC(=O)[C@H](CC(C)C)NC(=O)[C@H](Cc1ccccc1)NC(=O)[C@H](CCCCN)NC(=O)[C@H](CO)NC(=O)[C@H](Cc1ccccc1)NC(=O)[C@H](Cc1c[nH]c2ccccc12)NC(=O)[C@H](CCC(N)=O)NC(=O)[C@@H](NC(=O)[C@H](Cc1ccccc1)NC(=O)CCCCCNC(=O)CN1CCN(CC(=O)O)CCN(CC(=O)O)CCN(CC(=O)O)CC1)C(C)C)C(=O)N[C@@H](CCC(=O)O)C(=O)N1CCC[C@H]1C(=O)N[C@@H](CC(=O)O)C(=O)N[C@H](C(=O)N[C@@H](CO)C(=O)N[C@@H](CCC(N)=O)C(=O)N[C@H](C(=O)N[C@@H](CCC(N)=O)C(=O)N[C@@H](CC(=O)O)C(=O)N1CCC[C@H]1C(=O)N[C@@H](CC(N)=O)C(=O)N[C@@H](CC(=O)O)C(=O)N[C@@H](CCC(N)=O)C(=O)N[C@@H](Cc1ccc(O)cc1)C(=O)N[C@@H](CCC(=O)O)C(=O)N1CCC[C@H]1C(=O)N[C@@H](Cc1ccccc1)C(=O)O)C(C)C)C(C)C [copper-64 labelled],,"C57BL/6 mice, male, tumour-free, spleen",24 h,,tissue uptake,2.07 ± 0.09 %ID/g
CC[C@H](C)[C@H](NC(=O)[C@H](C)NC(=O)[C@H](C)NC(=O)[C@H](CCC(N)=O)NC(=O)CNC(=O)[C@H](CC(C)C)NC(=O)[C@H](Cc1c[nH]cn1)NC(=O)[C@H](CCCCN)NC(=O)[C@H](C)NC(=O)CNC(=O)[C@H](CCCCN)NC(=O)[C@H](CCCNC(=N)N)NC(=O)[C@H](CC(C)C)NC(=O)[C@H](Cc1c[nH]c2ccccc12)NC(=O)[C@H](CCCCN)NC(=O)[C@H](CCCCN)NC(=O)[C@H](Cc1c[nH]c2ccccc12)NC(=O)CN)C(=O)N[C@@H](CCCCN)C(N)=O,,"zebrafish embryos 28 hpf, E3 medium",24 h,,chronic toxic concentration,25 µM
C=Cc1c(C)c2cc3nc(c(CC(=O)[O-])c4[n-]c(cc5nc(cc1[n-]2)C(C)=C5CC)c(C)c4C(=O)[O-])C(CCC(=O)[O-])C3C.[Cu+2].[Na+].[Na+].[Na+] (centres unmarked),,"Wistar rat, male","oral, 250 mg/kg daily, 28 days",,serum AST,126 ± 21.4 U/L
O=C1NC2(CC2)COc2ncc(F)cc2[C@H]2COCCN2c2ccn3ncc1c3n2,,"Sprague-Dawley rat, female","oral, 20 mg/kg/day, end of treatment, 4-week repeated-dose toxicity",,body weight,314 ± 41.6 g
CCCCCCCC(=O)N[C@@H](CCCNC(=N)N)C(=O)N[C@@H](Cc1c[nH]c2ccccc12)C(=O)N[C@@H](CCCCN)C(=O)N[C@H](C(=O)N[C@@H](Cc1ccccc1)C(=O)N[C@@H](CCCCN)C(=O)N[C@@H](CCCCN)C(=O)N[C@H](C(=O)N[C@@H](CCC(=O)O)C(=O)N[C@@H](CCCCN)C(=O)N[C@H](C(=O)NCC(=O)N[C@@H](CCC(N)=O)C(=O)N[C@@H](CC(N)=O)C(=O)N[C@H](C(=O)N[C@@H](CCCNC(=N)N)C(=O)N[C@@H](CC(=O)O)C(=O)NCC(=O)N[C@H](C(=O)N[C@H](C(=O)N[C@@H](CCCCN)C(=O)N[C@@H](C)C(=O)NCC(=O)N1CCC[C@H]1C(=O)N[C@@H](C)C(=O)N[C@H](C(=O)N[C@@H](C)C(=O)N[C@H](C(=O)N[C@H](C(=O)NCC(=O)N[C@@H](CCC(N)=O)C(=O)N[C@@H](C)C(=O)N[C@@H](C)C(=O)N[C@H](C(=O)N[C@H](C(N)=O)[C@@H](C)CC)[C@@H](C)O)C(C)C)C(C)C)C(C)C)C(C)C)[C@@H](C)CC)[C@@H](C)CC)C(C)C)[C@@H](C)CC)[C@@H](C)CC,CD spectroscopy,50% TFE in water,room temperature,,helical content,38.6%
CC(C)Oc1c(NC(=O)c2ccc(NC(=O)[C@H](CC(N)=O)NC(=O)c3ccc(/N=N/c4ccccc4)cc3)cc2)ccc(C(=O)Nc2ccc(C(=O)O)cc2)c1O,absorbance,DMSO,"45 °C, PSS to ground state relaxation",,thermal half-life,3.1 h
CC1(C)C(=O)N(c2ccc(C#N)c(C(F)(F)F)c2)C(=S)N1c1ccc(C(N)=O)c(F)c1,,"human, male, plasma","oral, 160 mg, single dose, after high-fat meal",,Tmax,233 ± 72.9 h
C[C@H](O)[C@@H](NC(=O)[C@H]1CCCN1C(=O)[C@@H](CCCCN)NC(=O)[C@@H](CO)NC(=O)[C@@H](Cc1ccc(O)cc1)NC(=O)[C@@H](CC(N)=O)NC(=O)CCOCCOCCOCCNC(=O)CN1CCN(CC(=O)O)CCN(CC(=O)O)CCN(CC(=O)O)CC1)C(=O)N[C@H](CC(=O)O)C(=O)N[C@H](CCCNC(=N)N)C(=O)N[C@H](CCC(N)=O)C(=O)N[C@H](Cc1ccc(O)cc1)C(=O)N[C@H](Cc1c[nH]cn1)C(=O)N[C@H](Cc1ccccc1)C(N)=O [gallium-68 labelled],,"BALB/c nude mice U-87 MG tumour, fat","intravenous, 1.85 MBq, 2 h, radiolabelled",,tissue uptake,0.1 ± 0.07 %ID/g
CCn1ccc(-c2cc(-c3cnn(C)c3)cc([C@@H](C)NC(=O)c3cc(OCCN(C)C)ccc3C)c2)n1,,"C57BL/6J mice, male, plasma","oral, 50 mg/kg",,AUC(0-inf),22800 ng·h/mL
CCCCC/C=C\CCCO[Si](CCCCN(C)C)(OCCC/C=C\CCCCC)OCCC/C=C\CCCCC,"refers to: IL-6, MCP-1, ALT, AST",BALB/c mice,"intravenous, 6 mg/kg siRNA, 6 h cytokines, 24 h ALT/AST, LNP formulation",,tolerability,not toxic
CC(C)=CCC/C(C)=C/CCn1cc(CC(C)(P(=O)(O)O)P(=O)(O)O)nn1,,mouse CD-1,"intravenous, 0.3 mg/kg, 2 h",relative to: dose,biliary excretion,0.51%
N#[11C]c1ccc(-c2csc(NN=C3CCCC3)n2)cc1,,"C57BL/6 mouse, male","intravenous, 3 MBq, 1 min",,uptake in adrenal gland,15.6 ± 7.51 %ID/g
COc1cnc2cccc(N3CCc4c(cc(Cn5ccnc5)cc4-c4cn(C)nc4C(F)(F)F)C3=O)c2c1,,CD-1 mouse,"intraperitoneal, 50 mg/kg once daily, day 2, dose-escalation tolerability",relative to: day 1,body weight change,2%
CN1Cc2cc(Cl)ccc2-n2c(nnc2C2CCN(c3cccc([18F])n3)CC2)C1,,"C57BL/6 mouse male, pancreas","intravenous, 3.7 MBq, 5 min",,tissue uptake,8.61 ± 1.76 %ID/g
CSCC[C@H](N)C(=O)N[C@@H](C)C(=O)N[C@@H](Cc1c[nH]c2ccccc12)C(=O)N[C@@H](Cc1c[nH]cn1)C(=O)N[C@@H](CC(=O)O)C(=O)N[C@@H](CC(=O)O)C(=O)N[C@@H](CCC(=O)O)C(=O)N[C@@H](CCC(=O)O)C(=O)N[C@@H](Cc1ccccc1)C(=O)N[C@@H](C)C(=O)N[C@@H](CCCNC(=N)N)C(=O)N[C@@H](CCCNC(=N)N)C(=O)N[C@@H](CCCNC(=N)N)C(=O)N[C@@H](CCCNC(=N)N)C(=O)NCCCCCC(=O)NCCCCC(NC(=O)CCCCCNC(=O)[C@H](CCCNC(=N)N)NC(=O)[C@H](CCCNC(=N)N)NC(=O)[C@H](CCCNC(=N)N)NC(=O)[C@H](CCCNC(=N)N)NC(=O)[C@H](C)NC(=O)[C@H](Cc1ccccc1)NC(=O)[C@H](CCC(=O)O)NC(=O)[C@H](CCC(=O)O)NC(=O)[C@H](CC(=O)O)NC(=O)[C@H](CC(=O)O)NC(=O)[C@H](Cc1c[nH]cn1)NC(=O)[C@H](Cc1c[nH]c2ccccc12)NC(=O)[C@H](C)NC(=O)[C@@H](N)CCSC)C(=O)NCCCCC(NC(=O)C(CCCCNC(=O)CCCCCNC(=O)[C@H](CCCNC(=N)N)NC(=O)[C@H](CCCNC(=N)N)NC(=O)[C@H](CCCNC(=N)N)NC(=O)[C@H](CCCNC(=N)N)NC(=O)[C@H](C)NC(=O)[C@H](Cc1ccccc1)NC(=O)[C@H](CCC(=O)O)NC(=O)[C@H](CCC(=O)O)NC(=O)[C@H](CC(=O)O)NC(=O)[C@H](CC(=O)O)NC(=O)[C@H](Cc1c[nH]cn1)NC(=O)[C@H](Cc1c[nH]c2ccccc12)NC(=O)[C@H](C)NC(=O)[C@@H](N)CCSC)NC(=O)CCCCCNC(=O)[C@H](CCCNC(=N)N)NC(=O)[C@H](CCCNC(=N)N)NC(=O)[C@H](CCCNC(=N)N)NC(=O)[C@H](CCCNC(=N)N)NC(=O)[C@H](C)NC(=O)[C@H](Cc1ccccc1)NC(=O)[C@H](CCC(=O)O)NC(=O)[C@H](CCC(=O)O)NC(=O)[C@H](CC(=O)O)NC(=O)[C@H](CC(=O)O)NC(=O)[C@H](Cc1c[nH]cn1)NC(=O)[C@H](Cc1c[nH]c2ccccc12)NC(=O)[C@H](C)NC(=O)[C@@H](N)CCSC)C(N)=O (some centres unmarked),,"C57BL/6 mouse female, colon","dose not given, 3 h",relative to: total,mean tissue distribution,2.99%
N=C(N)NCCC[C@@H](NC(=O)[C@H](N)Cc1c[nH]c2ccccc12)C(=O)N[C@H](CCCCN)C(=O)N[C@H](Cc1c[nH]c2ccccc12)C(=O)N[C@H](CCCNC(=N)N)C(=O)N[C@H](CCCCN)C(=O)N[C@H](Cc1c[nH]c2ccccc12)C(=O)N[C@H](CCCNC(=N)N)C(=O)N[C@H](CCCCN)C(=O)N[C@H](Cc1c[nH]c2ccccc12)C(=O)N[C@H](CCCNC(=N)N)C(=O)N[C@H](CCCCN)C(N)=O,,"mouse, urine",20 mg/kg,,cystatin C level,25.7 ng/mL

# A few entries again:
Compound,test,system,setting,scale,endpoint,result
CC(C)=CCC/C(C)=C/CCn1cc(CC(C)(P(=O)(O)O)P(=O)(O)O)nn1,,mouse CD-1,"intravenous, 0.3 mg/kg, 2 h",relative to: dose,biliary excretion,0.51%
